# Measurements collected from several papers.
# Numbered parts are unrelated; each lists some results of a single study. Changes are numbered by the printed parent chain.

# Sample 1
# Target: RING finger protein unkempt homolog, zinc fingers 1-6, SBP tag (UNK, Homo sapiens, UniProt Q9C0B0, residues 30-357)
# Chain of UniProt Q9C0B0 (30-357, looked up): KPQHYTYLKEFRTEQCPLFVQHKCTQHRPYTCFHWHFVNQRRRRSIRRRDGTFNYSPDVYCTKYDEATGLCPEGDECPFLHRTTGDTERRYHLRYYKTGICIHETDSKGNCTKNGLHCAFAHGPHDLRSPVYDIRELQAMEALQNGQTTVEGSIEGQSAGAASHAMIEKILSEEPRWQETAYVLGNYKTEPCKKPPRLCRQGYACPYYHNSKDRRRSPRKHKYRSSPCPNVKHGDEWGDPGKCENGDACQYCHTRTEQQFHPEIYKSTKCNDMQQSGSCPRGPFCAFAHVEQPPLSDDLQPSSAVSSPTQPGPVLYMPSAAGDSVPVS
# Method: RNA Bind-n-Seq
# Molecule type: RNA
# Matrix: in vitro
# Tested at: 100 nM
# Notes: RNA with constant flanks, vertebrate orthologous sites, ends assumed
# Relative to: input RNA pool
# Reading: higher = stronger binding
# Constant ends, left off below: GGGAGUUCUACAGUCCGACGAUC … CAACAGAGGAUUGAGCAUCA
Strand,bound/input enrichment
UAACUGAGUGCUUAAGCCGCCAACAGUUAUGCUAUUUAUUUGUGUCUGUAAGUUUGUACAUAGUAAUGCCAGCCUUGUUGCUGAAUUUUUUAUUUGGGGGUGGGGGGCUUAGUUUGAAUU,2.11 ratio
GUGACUUUGAACGUCCGCUCAUCCUAGGUGUGGAGACUACUGAGUCUCUGGGUGUGAAGGUUUGUUUUGCUUCGCCGGAGCCGAGGCCUCUGCCGCAAUCAUGUUCCGCCAGAUCUUCAC,0.226 ratio
ACACGUAUAUUGUGGCAUAUAGUCAACACGGAAGUAGACCAGCUCUGCUGAUUUGAAAUUUAGAUUUUUUUUAAUUAUGUACUGGGGACAGGUUUUUGUCGCUUUACAUUGCUUCCUAGU,4.91 ratio
CAUUGUAUCCUGCUGUAUAAUAAACAGUCUUAGACAUUUAUCAACUGUUGAUACAAAUCUUAGUCCCUAACCACUUUUUAUAUGUUUUAAAUUUUUGAAAUUCAAGUGUACCUGCCAUAA,2.15 ratio
GUGACUUUGGAAGUCCGCAGUGUCUCAUUGCAGAUACUACUUAGCUCAGGGCCUGGUGGCUAGACAAGUUCUCUCCUUUCCAGUCGGAGGCCUGUGUCGCAAACAUGCUCCGCCAUAUGG,0.461 ratio
GACCUCCUGAACUUCUAGCUUUCAAGCUGUGGCUGUUUUAGAUACUGGUUUUAUUUUCUUUACAAUUUUCCUGCCUUUCUUCCCAUGUUCCCAAGGUUUGACUCAUGGAUCUUAUUCUUC,2.62 ratio
GCCAUCUGACUGGAUGAAGACGAUCCCAAGUUACAACCAAACCAGCAGCUCCAUGGACUUUAGAAAUUAUAUGAUGAGAGAUGAGAAUCUGGAACCACUGCCCCCAAAUUGGGAAAUGGC,0.736 ratio

# Sample 2
# Target: CCNB2, cyclin fold, Cln2 fusion (human)
# Method: yeast growth competition, sequencing
# Matrix: yeast
# Notes: weak parent motif
# Relative to: not given
# Reading: higher = stronger binding
# Parent: SAMHD1 docking peptide (human); ASKSRVQLFKDDP
Change,normalised enrichment score
Q7Y,0.269
S2F,0.625
D12Y,0.572
F9I,0.819
K10V,-0.231
K10C,0.321
D11I,-0.0438
Q7F,0.145

# Sample 3
# Target: Fragile X messenger ribonucleoprotein 1, C-terminal low-complexity region (Fmr1, Mus musculus, UniProt P35922)
# Method: RNA Bind-n-Seq
# Molecule type: RNA
# Matrix: in vitro
# Tested at: 200 nM
# Notes: whole 134-nt RNA, ends assumed
# With: 150 mM LiCl
# Relative to: input library
# Reading: higher = stronger binding
# Each molecule: 7-deaza-guanosine replaces G
# Constant ends, left off below: GGGAGUUCUACAGUCCGACGAUC … UGGAAUUCUCGGGUGUCAAGG
Strand,log2 enrichment
UGGCCCUGGUGGCAUGCGGGGAGGAAGAGGUGGCCUCAUGGAUCGUGGUAGUCCCGGUGGAAUGUUCAGAGGUGGCCGUGGUGGAGACAG,0.789
GCAGGAAGUAAAAACAAAUGGAAACGCUUCGGAUAGUGGCAGGGGUGGGGGUUGCUAAGGAAAGGGUGGGAUGGGAGUGGGUAAAGAGUU,1.51
AAGUCCUGUGCUACACAUCGUAUGUACCGAAUCGGGUUUUUGGGUUUGGGAAAGGGAAAGUAUUAUGUUACGCCGUUCGGAUCUGCACUU,-1.87
CAAGUCCUGUGCUACACAUCGUAUGUACCGAAUCGGCCCCGGGCCCCGGCCCCGGGAAAGUAUUAUGUUACGCCGUUCGGAUCUGCACUU,-1.15
AAGUCCUGUGCUACACAUCGUAUGUACCGAAUCGGGGCCCCGGCCCCGGGCCCCGGGAAAGUAUUAUGUUACGCCGUUCGGAUCUGCACU,-2.72
UACUCUUUGAUUUAUCAAAUGUGUUCAGUUGGAGAAUCGUCCUCAGGAAAGGCUUCAAGGAGCCUUGCACAGCAUAUUCCUGGCCCUGGU,-2.66
AGUCCUGUGCUACACAUCGUAUGUACCGAAUCGUGUGUGUGUGUGUGUGUGUGUGUGUAAAGUAUUAUGUUACGCCGUUCGGAUCUGCAC,-0.249
CAAGUCCUGUGCUACACAUCGUAUGUACCGAAUCGGGUGGGAGGGAAAAAAAGGGAAAGUAUUAUGUUACGCCGUUCGGAUCUGCACUUC,0.0287
CAAGUCCUGUGCUACACAUCGUAUGUACCGAAUCGGGGUGGGGUUUGGGGUGGGGAAAGUAUUAUGUUACGCCGUUCGGAUCUGCACUUC,-0.539
UAACUUUAGAGGAGGAUCUGAUGGAUAUGGCAGUGGACGUGGAUUUGGGGAUGGCUAUAAUGGGUAUGGUGGAGGACCUGGAGGUGGCAA,0.235
ACCAUGCAGGUGGGCAUCUUUGGGAAGUGGGGCAAGGGGGGGAUAGGGAGGGGGGUAACACUUUAAAAACAGGUGGUCCCAGGUCGUUUC,1.35

# Single results of other studies
Molecule,target,test,system,conditions,how to read,endpoint,result
"PhoQ, residues 284 288 289 292 302 303 SNSSNI","PhoP, residues 12 14 15 18 19 LFHKL (Escherichia coli, UniProt P23836)","Sort-seq, measured: YFP reporter",E. coli,"PhoQ-PhoP variant library, with: 10 µM Mg2+","relative to: high Mg2+ state, higher = stronger signaling",fold induction,2.77

# Repeated from above (sample 1):
Strand,bound/input enrichment
GUGACUUUGGAAGUCCGCAGUGUCUCAUUGCAGAUACUACUUAGCUCAGGGCCUGGUGGCUAGACAAGUUCUCUCCUUUCCAGUCGGAGGCCUGUGUCGCAAACAUGCUCCGCCAUAUGG,0.461 ratio
GACCUCCUGAACUUCUAGCUUUCAAGCUGUGGCUGUUUUAGAUACUGGUUUUAUUUUCUUUACAAUUUUCCUGCCUUUCUUCCCAUGUUCCCAAGGUUUGACUCAUGGAUCUUAUUCUUC,2.62 ratio
